# Assay results collected from several papers.
# Lines come from different studies, so protocols differ.
SMILES,test,system,setting,measurement,value
CN1CCC[C@]1(C)/C=C/S(=O)(=O)NC(=O)Nc1c2c(cc3c1CCC3)CC=C2,,"human, plasma","oral, 12.5 mg twice daily of parent drug, day 14, metabolite of dosed drug",Tmax at second steady-state dose,3 h
CN(C(=O)C(C)(C)c1cc(C(F)(F)F)cc(C(F)(F)F)c1)c1cnc(N2C[C@H]3COC(O)CN3C[C@H]2CO)cc1-c1ccc(F)cc1CO (stereo partly shown),,"human, plasma","oral, 120 mg, median",Tmax,2.01 h
CC[C@H](C)[C@@H]1NC(=O)[C@H](Cc2ccc(O)cc2)NC(=O)CCCSC[C@@H](C(=O)N(CC(=O)N[C@@H](CC(C)C)C(=O)NCC(N)=O)Cc2ccc(F)cc2)NC(=O)[C@H](CC(N)=O)NC(=O)[C@H](CCC(N)=O)NC1=O,,"healthy human, plasma","intranasal, 50 µg every 3 h, after last dose",tmax median,0.25 h
COc1cc2c(cc1OC)[C@H]1C[C@H](O)[C@H](CC(C)C)CN1CC2,measured: non-deuterated analyte,"healthy human male, plasma","oral, 25 mg, median, [14C]-tetrabenazine dosed",Tmax,1.5 h
CN1CCC[C@]1(C)/C=C/S(=O)(=O)NC(=O)Nc1c2c(cc3c1CCC3O)CCC2 (stereo partly shown),,"human, plasma","oral, 100 mg twice daily of parent drug, day 14, metabolite of dosed drug",Tmax at second steady-state dose,3 h
COc1cc2c(cc1O)CCN1C[C@@H](CC(C)C)[C@@H](O)C[C@H]21,measured: non-deuterated analyte,"healthy human male, plasma","oral, 25 mg, median, [14C]-tetrabenazine dosed",Tmax,2.25 h
CCCCCCCOc1ccc(CC[C@](N)(CO)COP(=O)(O)O)cc1C(F)(F)F,,"healthy human males, plasma","oral, 0.75 mg, day 1, median",Tmax,12 h
CC(C)C[C@H](NC(=O)[C@H](CCCN)NC(=O)CNC(=O)[C@@H](NC(=O)[C@H](C)NC(=O)[C@@H]1CSCSC[C@H](NC(=O)CC[C@H](N)C(=O)O)C(=O)N[C@@H](CC(N)=O)C(=O)N[C@@H]([C@@H](C)O)C(=O)N[C@@H](C)C(=O)N[C@@H]([C@@H](C)O)C(=O)N1)[C@@H](C)O)C(=O)N[C@@H](C)C(=O)N[C@@H](CCC(=O)O)C(=O)N[C@@](C)(Cc1ccccc1)C(=O)N[C@@H](CC(C)C)C(=O)N[C@H](C(=O)N[C@@H](CCCNC(=N)N)C(=O)N[C@@H](CO)C(=O)N[C@@H](CO)C(=O)N[C@@H](CC(N)=O)C(=O)N(C)[C@@H](CC(N)=O)C(=O)N[C@@H](Cc1ccccc1)C(=O)NCC(=O)N1CCC[C@H]1C(=O)N[C@@H](CCCCNC(=O)CC[C@H](NC(=O)CC[C@H](NC(=O)CCCCCCCCCCCCCCCCCCC(=O)O)C(=O)O)C(=O)O)C(=O)N[C@@H](CC(C)C)C(=O)N1CCC[C@H]1C(=O)N1CCC[C@H]1C(=O)N[C@H](C(=O)N[C@@H](CCC(=O)O)C(=O)N[C@H](C(=O)NCC(=O)N[C@@H](CO)C(=O)N[C@@H](CC(N)=O)C(=O)N[C@H](C(=O)N[C@@H](Cc1ccc(O)cc1)C(N)=O)[C@@H](C)O)C(C)C)[C@@H](C)O)C(C)C,,healthy human,"subcutaneous, 12 mg",tmax,72 to 132 h
Cc1cc(F)ccc1-c1cc(N2C[C@H]3COC(O)CN3C[C@H]2CO)ncc1N(C)C(=O)C(C)(C)c1cc(C(F)(F)F)cc(C(F)(F)F)c1 (stereo partly shown),,"human, plasma","oral, 120 mg, median",Tmax,2.01 h
CN1CCC[C@]1(C)/C=C/S(=O)(=O)NC(=O)Nc1c2c(cc3c1CC(O)C3)CCC2 (stereo partly shown),,"human, plasma","oral, 50 mg twice daily of parent drug, day 14, metabolite of dosed drug",Tmax at second steady-state dose,4 h
